Measured values gathered from unrelated publications.
Lines come from different studies, so protocols differ. Several values in a cell are separate wells, animals, samples, runs or records. Numbers after ± are the reported error.

SMILES	test	system	conditions	how to read	quantity	value
CC(C)[C@H](C(=O)Nc1ccc(C(=O)NO)cc1)c1ccccc1		human	1.6 2 weeks after dosing	higher = worse hearing	pure-tone average, left ear	-2 dB
COc1ncc(-c2nc3c(n2C(C)C)[C@H](c2ccc(Cl)cc2)N(c2cc(Cl)cn(C)c2=O)C3=O)c(OC)n1	International Working Group criteria	human acute myeloid leukemia patients	oral, 120 mg, response TF, high-dose, recommended dose for expansion		best overall response	62.5%
CCCCC1(CCCC)CN(c2ccccc2)c2cc(SC)c(OCC(=O)N[C@@H](C(=O)NCC(=O)O)c3ccccc3)cc2S(=O)(=O)C1	refers to: 7α-hydroxy-4-cholesten-3-one	human, plasma	2.5 mg once daily, day 11		plasma C4	25.7 ng/mL
Cc1cc(C)c(CNC(=O)c2cc(Cl)c3c(c2C)O[C@@](C)([C@H]2CC[C@H](N(C)C)CC2)O3)c(=O)[nH]1		human relapsed/refractory PTCL	concentration not given, best overall response		stable disease	15.4%
CN(C)C(=O)Oc1cccc([N+](C)(C)C)c1	neuromuscular block reversal	rat	dose not given, 3.5 (unit not given), added: cisatracurium	baseline: T1 twitch	train-of-four ratio	5.53
C[C@H](NC(=O)c1c(C(F)F)nn(C)c1Oc1cccc(C(F)(F)F)c1)c1ccc(C(=O)O)cc1	irRECIST	human, advanced tumours	500 mg	best overall response	stable disease	0%
COc1ccccc1[C@H](Cn1c(=O)n(C(C)(C)C(=O)O)c(=O)c2c(C)c(-c3ncco3)sc21)OC1CCOCC1	[1-13C]acetate infusion, isotopomer analysis	overweight or obese healthy men, plasma VLDL-TG palmitate	oral, 200 mg single dose, 8 h post-dose, added: oral fructose		fractional hepatic DNL	5.71 % new palmitate
Cn1cc(Nc2nccc(-c3ccc4c(c3)CN(C3COC3)CC[C@H]4NC(=O)c3cn(C(C)(C)C)nn3)n2)cn1	refers to: Leukocyte Extravasation Signaling	splenic B cells, mouse	in vivo, 30 mg/kg, IgD-activated B cells	baseline: vehicle, positive = activation	pathway activation z-score	3.13
CC(C)=CC1NCCc2cc(O)c(O)cc21 (stereo not drawn)	ferrozine	cell-free	100 µM, DMSO solvent		Fe2+ chelation	94.97 ± 0.36%
CC(=O)Oc1cc2c(s1)CCN(C(C(=O)C1CC1)c1ccccc1F)C2 (stereo not drawn)	platelet aggregation, light transmission aggregometry	human patients, platelet-rich plasma	dose not given, 2 h, added: TRAP 5 µM		patients with IPA above 90%	0%
NC(=O)c1cnc2[nH]ccc2c1N[C@@H]1[C@@H]2CC3C[C@H]1C[C@@](O)(C3)C2	flow cytometry	Japanese healthy men, blood	oral, 10 mg twice daily, 72 h after day 7 dose	baseline: baseline	total naive T-cell change	-6.3%
COc1ccccc1C(=O)NCc1ccc(CNS(=O)(=O)c2ccc(C)cc2)cc1	xylene-induced ear edema	mouse	intraperitoneal, 10 mg/kg		ear edema	no effect
CN(CCOc1ccc(CC2SC(=O)NC2=O)cc1)c1ccccn1 (stereo not drawn)	IPA pathway analysis	human liver spheroids	1 µM, 10 d		fatty acid beta-oxidation I pathway	increased
COc1cc2cc(-c3ccc(CC(=O)Nc4cc(C(C)(C)C(F)(F)F)no4)cn3)cnc2cc1OC		human RET fusion-positive NSCLC	75 mg, phase I, RECIST 1.1		stable disease as best response	53%
CN(C(=O)n1cnc(-c2ccc[n+]([O-])c2)c1)C1CCCCC1		mice, formalin paw test	oral, 0.3 mg/kg, late phase	baseline: vehicle, direction not given	change in licking score	-29%
C[C@@H](NC(=O)N1C(=O)[C@H](Cc2ccnc(N)c2)[C@H]1C(=O)O)C1CCCCC1		human	iv infusion, 0.6 mg/kg/h, 24 h		time to aPTT Emax	48 h
Cc1nn(-c2nc3c(F)cc(F)cc3s2)c(O)c1C(c1ccc(C(F)(F)F)cc1)c1c(C)nn(-c2nc3c(F)cc(F)cc3s2)c1O	refers to: inflammatory infiltration	mouse, cerulein-induced acute pancreatitis	25 mg/kg	direction not given	histology score	0 and 1 and 3
C[C@H]1C[C@H]2CSC(N)=N[C@@]2(c2nc(NC(=O)c3ccc(OC(F)F)cn3)cs2)CO1	refers to: Aβx-40	healthy adults, plasma	12 mg single dose, 24 h post-dose	baseline: placebo	percent change from baseline	-49.2%
Fc1cccc2c1C#Cc1cccc(F)c1C#C2	UV spectroscopy	methanol	room temperature, added: benzyl azide		second-order rate constant	0.00372 M⁻¹ s⁻¹ and 0.00363 M⁻¹ s⁻¹
CC1(C)CCC2(CC1)N[C@@H](C(=O)N[C@@H]1CC[C@@H](C(N)=O)OC1)[C@H](c1ccnc(Cl)c1F)[C@]21C(=O)Nc2cc(Cl)ccc21		human, solid tumours	60 mg/day, RECIST	baseline: patients	stable disease	33.3%
Nc1nc2cc(-c3ccc4ncc(C(=O)N5CCOCC5)n4c3)ccc2o1	RECIST v1.1	human advanced solid tumours, PIK3CA mutant	concentration not given, stable ≥3 months, all schedules		patients with stable disease	28%
Cc1n[nH]c2ccc(-c3cc(OC[C@@H](N)Cc4ccccc4)cnc3-c3ccoc3)cc12	kinase binding, competitor, MIB/MS competition, refers to: ATG1	Candida albicans cell lysate	1 µM	baseline: DMSO	log2 fold change	-0.147
CN[C@@H]1COc2c(S(=O)(=O)NC(=O)Nc3c4c(cc5c3CCC5)CCC4)cnn2C1	refers to: IL-18	human participants, whole blood ex vivo	900 mg single dose, 72 h, IL-18, circulating, adjusted for, added: LPS/ATP	baseline: baseline	inhibition	42.1%

SMILES	test	system	conditions	how to read	quantity	value
O=C1Nc2cc3[nH]nc(-c4ccncc4)c3cc2CN1Cc1ccccc1	RECIST v1.1	human, relapsed or refractory advanced solid tumours	intravenous, 0.9 mg/kg, pooled schedules		stable disease, best response	0%
CC(C)c1nc(N(C)S(C)(=O)=O)nc(-c2ccc(F)cc2)c1/C=C/[C@@H](O)C[C@@H](O)CC(=O)O		human, HIV-infected, plasma	median after treatment		HDL cholesterol	1.2 mmol/L
O=C(COc1ccc(Cl)cc1)NC12CC(c3nnc([C@H]4C[C@@H](OC(F)(F)F)C4)o3)(C1)C2		healthy human, PBMC	260 mg once daily, day 14, 4 h post-dose, median, added: sodium arsenite ex vivo	baseline: baseline	ATF4 protein change	-65.2%
N#Cc1ccn2c(-c3ccncc3)c(-c3ccc(F)cc3)nc2c1	kinase binding, competitor, MIB/MS competition, refers to: IKS1	Candida albicans cell lysate	10 µM	baseline: DMSO	log2 fold change	-0.31
CC1(C)CCC(c2ccc(Cl)cc2)=C(CN2CCN(c3ccc(C(=O)NS(=O)(=O)c4ccc(N[C@H](CCN5CCOCC5)CSc5ccccc5)c(S(=O)(=O)C(F)(F)F)c4)cc3)CC2)C1	cell killing	canine blood CD3+ T cells, dog 32	24 h		EC50	147 nM
CCCCCC1NCCc2cc(O)c(O)cc21 (stereo not drawn)	ferrozine	DMSO	100 µM		Fe2+ chelation	30.5 ± 1.97%
OC(CCN1CCCCC1)(c1ccccc1)C1CC2C=CC1C2 (stereo not drawn)	resting-state EEG	healthy elderly humans	oral, 4 mg, eyes closed, LS mean		EEG Beta1-power Pz-O1	4.2 µV²
N#Cc1ccc2c(c1)[C@H]1CCCN(C(=O)c3ccc4[nH]cnc4c3)[C@H]1C2		human, plasma	40 mg, day 15, 360 h	baseline: placebo and baseline	change in HOMA-IR	-30.9%
C=CCn1c(=O)c2cnc(Nc3ccc(N4CCN(C)CC4)cc3)nc2n1-c1ccc2c(n1)[C@@](O)(CC)CC2		A-427, NOD/SCID mice, xenograft	oral, 150 mg/kg, intermittent, day 51	baseline: vehicle	tumour volume difference	-317 ± 6.6 mm3
NC1(C(=O)N[C@@H](CCO)c2ccc(Cl)cc2)CCN(c2nc[nH]c3nccc2-3)CC1		human mCRPC patients	dose not given, added: enzalutamide		CTC non-response rate	62.5%
NCC(=O)Nc1cncc(-c2nn3c(=O)cc(N4CCNCC4)nc3s2)c1	ADP-induced platelet aggregation, light transmission aggregometry	human, stable CAD on aspirin, platelets ex vivo	subcutaneous, 0.075 mg/kg, 120 min post-dose, added: ADP 20 µM		inhibition	28.8%
N#Cc1ccc2c(-c3ccncc3)c(-c3ccc(F)cc3)nn2c1	kinase binding, competitor, MIB/MS competition, refers to: YPK1	Candida albicans cell lysate	10 µM	baseline: DMSO	log2 fold change	-0.161
CC[C@@H]1[C@H](F)C(=O)N[C@@H]1COc1nccc2cc(C(N)=O)c(OC)cc12	ATP-site probe binding, ActivX profiling, refers to: MARK1, MARK2	THP-1 cell lysate	0.2 mM, Lys1 site		inhibition	8.4%
CO[C@H]1CC[C@H](N2C(=O)CNc3ncc(-c4ccc(C(C)(C)O)nc4)nc32)CC1	flow cytometry	stimulated monocytes, human, blood	30 mg single dose, 3 h, median	baseline: baseline	pAKT change from baseline	-56.5%
CC(C)NCC(O)c1ccc(O)c(O)c1 (stereo not drawn)		ventricular cardiomyocytes, C57BL/6 mouse	dose not given, 0.296 s		sarcomere length	1.72 µm
O=C(/C=C\n1cnc(-c2cc(C(F)(F)F)cc(C(F)(F)F)c2)n1)NNc1cnccn1		C57BL/6 mice, Eµ-TCL1 CLL transplant	15 mg/kg, 2 times per week		median overall survival	134 days
N#Cc1ccc2c(c1)[C@H]1CCCN(C(=O)c3ccc4[nH]cnc4c3)[C@H]1C2	meal tolerance test	human, Phase II trial	20 mg once daily, day 28, AUC0-2 h, adjusted mean	baseline: baseline	C-peptide AUC change	0.2 pmol/h/L
Cc1cc([C@H]2C[C@H]3[C@@H](CF)SC(N)=N[C@@]3(c3ccc(F)cc3F)CO2)on1	refers to: Aβx-40	wild-type mouse, brain	subcutaneous, 30 mg/kg, 14 h		brain Aβ40 level	2.92 ng/g
c1ccc(-c2n[nH]cc2-c2ccnc3ccccc23)nc1	kinase binding, competitor, MIB/MS competition, refers to: KIN3	Candida albicans cell lysate	100 nM	baseline: DMSO	log2 fold change	1.3
C[C@H](Oc1ccc(Br)cc1-c1ccon1)C(=O)O	first response peak	human, tibialis anterior muscle	1200 mg, 30 Hz, single ascending dose		difference from placebo	11.6%
CC[C@H](C)[C@H](NC(=O)[C@H](C)NC(=O)CNC(=O)[C@H](Cc1ccccc1)NC(=O)[C@H](CC(N)=O)NC(=O)[C@H](CC(N)=O)NC(=O)[C@H](CO)NC(=O)[C@H](CO)NC(=O)[C@H](Cc1c[nH]cn1)NC(=O)[C@@H](NC(=O)[C@H](CC(C)C)NC(=O)[C@H](Cc1ccccc1)NC(=O)[C@H](CC(N)=O)NC(=O)[C@H](C)NC(=O)[C@H](CC(C)C)NC(=O)[C@H](CCCNC(=N)N)NC(=O)[C@H](CCC(N)=O)NC(=O)[C@@H](NC(=O)[C@H](C)NC(=O)[C@@H]1CSSC[C@H](NC(=O)[C@@H](N)CCCCN)C(=O)N[C@@H](CC(N)=O)C(=O)N[C@@H]([C@@H](C)O)C(=O)N[C@@H](C)C(=O)N[C@@H]([C@@H](C)O)C(=O)N1)[C@@H](C)O)C(C)C)C(=O)N[C@@H](CC(C)C)C(=O)N[C@@H](CO)C(=O)N[C@@H](CO)C(=O)N[C@H](C(=O)N[C@@H](CC(N)=O)C(=O)N[C@H](C(=O)NCC(=O)N[C@@H](CO)C(=O)N[C@@H](CC(N)=O)C(=O)N[C@H](C(=O)N[C@@H](Cc1ccc(O)cc1)C(N)=O)[C@@H](C)O)C(C)C)[C@@H](C)O	ELISA	isolated mouse islets	10 µM, 24 h, unit not given	baseline: control	total insulin content	0.542
O=C(O)CNC(=O)Cc1ccccc1		ventricular cardiomyocytes, C57BL/6 mouse	dose not given, 0.516 s		sarcomere length	1.62 µm

For quick reference, copied from above:
SMILES	test	system	conditions	how to read	quantity	value
CN(C)C(=O)Oc1cccc([N+](C)(C)C)c1	neuromuscular block reversal	rat	dose not given, 3.5 (unit not given), added: cisatracurium	baseline: T1 twitch	train-of-four ratio	5.53
C[C@H](NC(=O)c1c(C(F)F)nn(C)c1Oc1cccc(C(F)(F)F)c1)c1ccc(C(=O)O)cc1	irRECIST	human, advanced tumours	500 mg	best overall response	stable disease	0%
COc1ccccc1[C@H](Cn1c(=O)n(C(C)(C)C(=O)O)c(=O)c2c(C)c(-c3ncco3)sc21)OC1CCOCC1	[1-13C]acetate infusion, isotopomer analysis	overweight or obese healthy men, plasma VLDL-TG palmitate	oral, 200 mg single dose, 8 h post-dose, added: oral fructose		fractional hepatic DNL	5.71 % new palmitate
Cn1cc(Nc2nccc(-c3ccc4c(c3)CN(C3COC3)CC[C@H]4NC(=O)c3cn(C(C)(C)C)nn3)n2)cn1	refers to: Leukocyte Extravasation Signaling	splenic B cells, mouse	in vivo, 30 mg/kg, IgD-activated B cells	baseline: vehicle, positive = activation	pathway activation z-score	3.13
CC(C)=CC1NCCc2cc(O)c(O)cc21 (stereo not drawn)	ferrozine	cell-free	100 µM, DMSO solvent		Fe2+ chelation	94.97 ± 0.36%
